Experimental data from different studies.
Lines come from different studies, so protocols differ.

C=C1[C@H](O)CC(=C/C=C2\CCC[C@]3(C)[C@@H]([C@@H](C)CCCC)CC[C@@H]23)C[C@H]1O
EC50 (rat osteosarcoma cells; reporter gene, activator, luciferase, measured: CYP24A1 (24-hydroxylase) promoter; 50% increase): 3 nM

Cc1cc(Nc2ccc(NC(=O)c3ccc(NC(=O)c4ccncc4)cc3)cc2)nc(N)n1
EC50 (KG-1; cell proliferation; 3 days, 15 % fetal calf serum): 1300 nM

CC(C)C[C@H](NC(=O)[C@H](CO)NC(=O)[C@H](C)NC(=O)[C@@H]1CCCN1C(=O)[C@H](Cc1c[nH]c2ccccc12)NC(=O)[C@H](CS)NC(=O)[C@H](CCC(=O)O)NC(=O)[C@H](CC(=O)O)NC(=O)[C@H](CC(N)=O)NC(=O)[C@H](CC(C)C)NC(=O)[C@@H](NC(=O)[C@H](CO)NC(=O)CNC(=O)[C@H](CO)NC(=O)CNC(=O)[C@H](C)NC(=O)[C@H](C)NC(=O)CNC(=O)[C@H](CCC(=O)O)NC(=O)[C@H](CO)NC(=O)[C@@H]1CCCN1C(=O)[C@H](CC(C)C)NC(=O)[C@H](Cc1ccccc1)NC(=O)[C@H](CCC(N)=O)NC(=O)[C@H](CCC(=O)O)NC(=O)[C@H](CCCNC(=N)N)NC(=O)[C@H](CO)NC(=O)[C@@H](NC(=O)[C@H](C)NC(=O)[C@H](C)N)[C@@H](C)O)[C@@H](C)O)C(=O)O
EC50 (MELOE-1 36-44 specific CD8 T cell clone; TNFα production; cross-presentation, added: mature dendritic cells): 430 nM

C/C=C(/C)C(=O)O[C@H]1C(C)=C[C@]23C(=O)[C@@H](C=C(CO)[C@@H](O)[C@]12O)[C@H]1[C@@H](C[C@H]3C)C1(C)C
EC50 (HSC-5; cytotoxicity, PrestoBlue; 30 min, 10% FBS): 250000 nM

FC(F)(F)c1ccnc(-c2cc(C(F)(F)F)ccn2)c1.FC(F)(F)c1ccnc(-c2cc(C(F)(F)F)ccn2)c1.[Cl-].[Cl-].[Ru+2].c1csc(-c2ccc(-c3ccc(-c4nc5c6cccnc6c6ncccc6c5[nH]4)s3)s2)c1
EC50 (SK-MEL-28; cell viability, resazurin; visible light, normoxia, mean replicates): 440 nM

CSCc1ccccn1.F[P-](F)(F)(F)(F)F.F[P-](F)(F)(F)(F)F.[Ru+2].c1ccc(-c2ccccn2)nc1.c1ccc(-c2ccnc3c2ccc2c(-c4ccccc4)ccnc23)cc1
EC50 (A549 spheroids; viability, CellTiter-Glo 3D; dark): 173000 nM

CC(C)c1cnc(-c2cc(Cl)ccc2F)cc1Nc1ccncc1C(=O)NC(CO)CO
EC50 (expanded human pan T cells; reversal of TGF-β IL-2 suppression; unbound drug, added: TGF-β): 12 nM

C(=C/c1ccccc1)/c1ccccc1
EC50 (KG-1a; apoptosis, Hoechst nuclear staining; 24 h): 350000 nM

O=c1c(-c2ccccc2)c[nH]n1-c1ccccn1
EC50 (A549 HRE-luciferase reporter; HIF reporter gene, activator): 5900 nM

C=C1[C@H](O)CC(=C/C=C2\CCC[C@]3(C)[C@@H]([C@H](C)CCCCO)CC[C@@H]23)C[C@H]1O
EC50 (rat osteosarcoma cells; reporter gene, activator, luciferase, measured: CYP24A1 (24-hydroxylase) promoter; 50% increase): 4 nM

FC(F)(F)c1ccnc(-c2cc(C(F)(F)F)ccn2)c1.FC(F)(F)c1ccnc(-c2cc(C(F)(F)F)ccn2)c1.[Cl-].[Cl-].[Ru+2].c1csc(-c2ccc(-c3ccc(-c4ccc(-c5nc6c7cccnc7c7ncccc7c6[nH]5)s4)s3)s2)c1
EC50 (SK-MEL-28; cell viability; normoxia, added: red light 633 nm): 2200 nM

CCCC[C@@H](C)[C@H]1CC[C@H]2/C(=C/C=C3C[C@@H](O)C(C)[C@H](O)C3)CCC[C@]12C (stereo partly shown)
EC50 (rat osteosarcoma cells; reporter gene, activator, luciferase, measured: CYP24A1 (24-hydroxylase) promoter; 50% increase): 50 nM

O=c1c(-c2cccnc2)c[nH]n1-c1ccc(CO)cn1
EC50 (A549 HRE-luciferase reporter; HIF reporter gene, activator): 13400 nM

Some of these lines once more:
CC(C)C[C@H](NC(=O)[C@H](CO)NC(=O)[C@H](C)NC(=O)[C@@H]1CCCN1C(=O)[C@H](Cc1c[nH]c2ccccc12)NC(=O)[C@H](CS)NC(=O)[C@H](CCC(=O)O)NC(=O)[C@H](CC(=O)O)NC(=O)[C@H](CC(N)=O)NC(=O)[C@H](CC(C)C)NC(=O)[C@@H](NC(=O)[C@H](CO)NC(=O)CNC(=O)[C@H](CO)NC(=O)CNC(=O)[C@H](C)NC(=O)[C@H](C)NC(=O)CNC(=O)[C@H](CCC(=O)O)NC(=O)[C@H](CO)NC(=O)[C@@H]1CCCN1C(=O)[C@H](CC(C)C)NC(=O)[C@H](Cc1ccccc1)NC(=O)[C@H](CCC(N)=O)NC(=O)[C@H](CCC(=O)O)NC(=O)[C@H](CCCNC(=N)N)NC(=O)[C@H](CO)NC(=O)[C@@H](NC(=O)[C@H](C)NC(=O)[C@H](C)N)[C@@H](C)O)[C@@H](C)O)C(=O)O
EC50 (MELOE-1 36-44 specific CD8 T cell clone; TNFα production; cross-presentation, added: mature dendritic cells): 430 nM
